Published values of several laboratories.
Parts stem from different laboratories: compare values within a part only.

Block 1
Target: Histone acetyltransferase KAT6A, winged helix 2, GST fusion (KAT6A, Homo sapiens, UniProt Q92794, residues 85-181)
Method: protein binding microarray
Molecule type: double-stranded DNA, one strand shown
Sample: in vitro
Concentration: not given
Notes: 8-mer, flanks averaged, mean of 2 arrays, mostly near background
Relative to: not given
Reading: higher = stronger binding
Residues (chain): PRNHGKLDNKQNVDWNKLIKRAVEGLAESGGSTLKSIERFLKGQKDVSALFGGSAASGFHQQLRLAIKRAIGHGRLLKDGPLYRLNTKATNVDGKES
With `ACCTCGTA` the E-score was -0.131.
For `CGCGCTTC`, the E-score was -0.0203.
For `AGGTACAC`, the E-score was -0.0577.
The E-score of `AACAAATA` is reported as -0.088.
With `AACGGATA` the E-score was -0.0143.
With `CACATGGA` the E-score was -0.0307.
For `GTAGTGCA`, the E-score was -0.104.
`AAGATGAC` has an E-score of 0.0305.
With `GACCATTA` the E-score was -0.0923.
`ACCCGCGT` gave an E-score of 0.0394.
With `CTCGAACA` the E-score was -0.0541.
For `AAGGCGAG`, the E-score was 0.0719.
With `GCGTTTCA` the E-score was 0.0396.
With `ACTTAAGT` the E-score was -0.0787.
For `CGACAGCG`, the E-score was 0.0723.
`CTGTTATA` gave an E-score of -0.0572.
`AAGGGCGT` has an E-score of 0.0814.
The E-score of `ATTGCCCA` is reported as 0.038.
The E-score of `GTGGTCTA` is reported as -0.123.
With `AGTATTTG` the E-score was -0.0826.
With `AAGTCCGG` the E-score was 0.0116.

Block 2
Target: Phosphate system positive regulatory protein PHO4, full length, GST-tagged (PHO4, Saccharomyces cerevisiae, UniProt P07270, residues 1-312)
Method: competition protein-binding microarray
Molecule type: double-stranded DNA, one strand shown
Sample: in vitro
Concentration: 2 µM
Notes: whole 60-bp probe, lowest competitor level
Added: Cbf1 competitor, 0.05 µM
Reading: higher = stronger binding
Target sequence (chain): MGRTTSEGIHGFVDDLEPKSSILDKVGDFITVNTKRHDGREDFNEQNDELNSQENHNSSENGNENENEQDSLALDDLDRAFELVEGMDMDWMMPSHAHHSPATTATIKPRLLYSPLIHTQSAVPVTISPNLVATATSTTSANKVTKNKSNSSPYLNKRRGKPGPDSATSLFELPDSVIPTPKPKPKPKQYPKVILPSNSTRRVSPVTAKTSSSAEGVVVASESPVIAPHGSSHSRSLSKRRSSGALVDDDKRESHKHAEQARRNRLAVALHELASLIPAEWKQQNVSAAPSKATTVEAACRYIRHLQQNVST
For `GGCCTTGGTAATGGGAACGTGGCCGAAAACGGCGAGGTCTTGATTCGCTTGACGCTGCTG`, the fluorescence intensity was 14600 a.u.
For `GTAACCCAGTAACATCAGGTGCACCATCACTACAAAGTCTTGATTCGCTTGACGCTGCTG`, the fluorescence intensity was 5620 a.u.
`CCCACTTGTCTTCGATGCGTGCTTTTGCCAATCAACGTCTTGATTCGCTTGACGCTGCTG` has a fluorescence intensity of 8980 a.u.
`ATATAGACAAAAGTGGCCGTGACGGGTAAAAAGGATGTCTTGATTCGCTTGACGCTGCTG` gave a fluorescence intensity of 4440 a.u.
For `TCCGGACCCACCGATTGCGTGATGGCCTGTACAAGGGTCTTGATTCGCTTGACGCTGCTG`, the fluorescence intensity was 4580 a.u.
For `ATTGTTGCTAAAAACGACATGACAACCATGAAGTACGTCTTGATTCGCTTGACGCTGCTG`, the fluorescence intensity was 6490 a.u.
`TATCAGATCAGCCATCACGTGCCGAGTCGTTAGAAAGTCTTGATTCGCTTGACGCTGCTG` gave a fluorescence intensity of 14900 a.u.
For `TGAAATCGAGCCGGCCTCGTGAAAAGGTGTAAAAAAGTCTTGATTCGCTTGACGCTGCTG`, the fluorescence intensity was 5820 a.u.
The fluorescence intensity of `GAGTTGCTTGAGGGTCTCGTGATGGCATCTTGCTGTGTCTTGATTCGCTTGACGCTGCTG` is reported as 6310 a.u.
With `CTTTCCCGATCTTGTTCCGTGGGTGTAGCACATTTGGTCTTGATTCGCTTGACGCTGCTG` the fluorescence intensity was 5510 a.u.
`CTAACGAAGGTTTGGTCGGTGGGTGACAAGCCAAGTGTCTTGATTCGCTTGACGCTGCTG` gave a fluorescence intensity of 3810 a.u.
`TTGCATTTCGGGCCTTTCGTGCCGAACTTTGCCAGTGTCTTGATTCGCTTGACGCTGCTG` has a fluorescence intensity of 4220 a.u.
`CTGAGTCCGACATCGCTCGTGTAGTTATTTGTAAAAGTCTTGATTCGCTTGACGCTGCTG` has a fluorescence intensity of 7810 a.u.
`AAATTACTAAGTTTTCACGTGTCGTACCCCGTATGAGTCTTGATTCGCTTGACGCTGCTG` gave a fluorescence intensity of 14500 a.u.
`CGTCCTAGTGATTGTCACCGAACTTCCATGAGGAAGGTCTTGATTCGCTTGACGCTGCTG` gave a fluorescence intensity of 4060 a.u.
`AAACATGGGAGTGGCATCTCATAATGTTGCTGCTCCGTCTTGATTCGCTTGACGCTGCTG` gave a fluorescence intensity of 4070 a.u.
For `TTTGCAAGTATATATCTGTATGTATCCATATTTAGAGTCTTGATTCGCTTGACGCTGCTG`, the fluorescence intensity was 3470 a.u.
With `CTTCCTCTTCGAACACACGTGCTTTACCCTTGAAGTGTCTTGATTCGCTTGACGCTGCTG` the fluorescence intensity was 19200 a.u.
The fluorescence intensity of `TGCGCAACAACTTGCTCCGTGGGTGTATGTCTAGAAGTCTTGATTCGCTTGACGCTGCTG` is reported as 5850 a.u.
For `TTCCATTTACACCGTCACGCTTTCCAAACCATCCAGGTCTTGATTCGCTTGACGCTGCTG`, the fluorescence intensity was 7190 a.u.
The fluorescence intensity of `CTAACGAAGGTTTGCATGGTGGGTGACAAGCCAAGTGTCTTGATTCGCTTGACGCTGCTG` is reported as 5090 a.u.
For `CCAGTACGATTCCGTCACGTGACTCGCGATCAACTAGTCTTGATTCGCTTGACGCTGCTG`, the fluorescence intensity was 13100 a.u.
`CGAATAACTTTCAAACGCGTGCGATGTTTGTTACCAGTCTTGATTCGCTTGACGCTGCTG` has a fluorescence intensity of 13200 a.u.

Block 3
Target: Interferon regulatory factor 7, full length, phosphomimetic (IRF7, Homo sapiens, UniProt Q92985, residues 1-503, S471D/S472D/S475D/S476D/S477D/S483D/S484D/S487D)
Method: protein-binding microarray
Molecule type: double-stranded DNA, one strand shown
Sample: in vitro
Concentration: 2200 nM top
Notes: 60-bp whole probe
Added: salmon DNA 0.4 mg/ml
Relative to: random background probes
Reading: higher = stronger binding
Shared flanks, not repeated: GCCTAGCAC … GTCTTGATTCGCTTGACGCTGCTG
Construct (chain): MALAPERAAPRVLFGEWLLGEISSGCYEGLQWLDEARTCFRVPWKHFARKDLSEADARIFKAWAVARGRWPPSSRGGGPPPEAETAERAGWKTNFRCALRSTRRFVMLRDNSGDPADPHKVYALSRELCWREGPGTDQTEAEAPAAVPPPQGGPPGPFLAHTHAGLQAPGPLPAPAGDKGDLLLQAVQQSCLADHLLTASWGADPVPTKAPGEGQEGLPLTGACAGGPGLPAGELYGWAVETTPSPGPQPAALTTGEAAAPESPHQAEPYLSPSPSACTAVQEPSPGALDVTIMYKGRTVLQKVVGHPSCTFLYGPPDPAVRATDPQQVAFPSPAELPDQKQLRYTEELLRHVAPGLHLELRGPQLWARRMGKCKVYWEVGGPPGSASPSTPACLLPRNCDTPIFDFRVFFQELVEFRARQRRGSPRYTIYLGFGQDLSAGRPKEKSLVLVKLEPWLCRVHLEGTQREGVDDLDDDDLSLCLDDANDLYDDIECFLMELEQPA
`GACAATCTCAGTATCGAGACGTGCTAG`: “fitted relative affinity” 0.047 z-score.
Under “fitted relative affinity”, `TTAGGTCTCCTACTGTTTTAGTGCTAG` is recorded as 0.888 z-score.
Under “fitted relative affinity”, `GACGGACTGCTATTGCTGACGTGCTAG` is recorded as -0.0976 z-score.
`TGAGGTATCCTTTTCCTTTAGTGCTAG` — result for “fitted relative affinity”: 1.33 z-score.
For `GACGGTTTCCTACTCCTGACGTGCTAG`, “fitted relative affinity” read 2.34 z-score.
For `CTAGTTTTACTTTCTATGTCGTGCTAG`, “fitted relative affinity” read 4.36 z-score.
Under “fitted relative affinity”, `TCACTTTTCCCCCTAGTACTGTGCTAG` is recorded as 3.07 z-score.
For `GACGAACTGGGGTTTCGAGTCGTGCTA`, “fitted relative affinity” read 3.1 z-score.
For `TTATGTTTCGGTTCCGGTTAGTGCTAG`, “fitted relative affinity” read 9.79 z-score.
Under “fitted relative affinity”, `GACGGTTACCTTTTCCTGACGTGCTAG` is recorded as 1.49 z-score.
Under “fitted relative affinity”, `AGAGATTTCAGGAATTGAAAAGTGCTA` is recorded as -1.35 z-score.
`TACGGACTGGACACTGGGGACGTGCTA` — result for “fitted relative affinity”: -0.771 z-score.
For `TTTCCTCTTTCTTTGCTTCAGTGCTAG`, “fitted relative affinity” read 6.15 z-score.
`TCAGCTTCCCAATTCTCACTGTGCTAG`: “fitted relative affinity” 1.82 z-score.
Under “fitted relative affinity”, `GACGGACTGGGGTTTCGGGATGTGCTA` is recorded as 1.01 z-score.
`GACGGTATCGACTATCTGGACGTGCTA`: “fitted relative affinity” 0.225 z-score.
`GACGGTTTCGGTTTCGGGAAGTGCTAG`: “fitted relative affinity” 13.8 z-score.
For `CCTCACTTCCTTCTGCCTGTGTGCTAG`, “fitted relative affinity” read 2.61 z-score.

Block 4
Target: RNA binding protein fox-1 homolog 2, RRM domain, GST-SBP tag (RBFOX2, Homo sapiens, UniProt O43251-10, residues 100-194)
Method: RNA Bind-n-Seq
Molecule type: RNA
Sample: in vitro
Concentration: 365 nM
Notes: natural RNA segment, single round, ends assumed
Relative to: no-protein control
Reading: higher = stronger binding
Construct (chain): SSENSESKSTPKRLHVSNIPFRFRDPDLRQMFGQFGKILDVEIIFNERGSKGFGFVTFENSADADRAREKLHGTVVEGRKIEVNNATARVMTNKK
`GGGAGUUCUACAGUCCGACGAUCAAAGUCCUUUGUAUUGGCACAUGAUAAAUCUUGAUGACGGGCUAUAUUCUGAACAAACGCUUGCACUGACCAAAGCUUGUGUUUAGCGUGUGUUUAGCAUAGGUGCUGUAUGGAAUUCUCGGGUGCCAA` — result for “RBNS enrichment (R)”: 0.388.
Under “RBNS enrichment (R)”, `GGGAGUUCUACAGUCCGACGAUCAAAUUCGCAUCUAACUGAAUGGUAGUGUCUUUAAAAUGUGCUGUUUUAUUUUAAAAAUAAUGCAUGUGCACUUUAGAAAUUUUUGAAAAUAAAGAUACAUGAAAGAAAGUUGGAAUUCUCGGGUGCCAA` is recorded as 3.79.
Under “RBNS enrichment (R)”, `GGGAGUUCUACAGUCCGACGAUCCCAAAGGAGAGUGCGUUGUCAUAGAAACCACAUAAAACUAUCCUUCCAGAGGCUUCACCACCUUGCACUGCUCUAUCUGGUUGGGGGUGGGCAGGAGAACCCCUCGCUUUUGGAAUUCUCGGGUGCCAA` is recorded as 0.52.
`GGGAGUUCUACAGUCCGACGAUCAACUAUGUUUUUCAGCCCUUCAGAAGGGUUCUACUACUGUCCUAUACAAUCAAGUAACUGAAAUUCUUGGGAAGACACUUUGCUCCUCAUCUUUCUCCCCGAAACAAUGUUGGAAUUCUCGGGUGCCAA`: “RBNS enrichment (R)” 0.354.
For `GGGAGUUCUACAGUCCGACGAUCGAGUUCCUUCUCCUAAAGCUAAGGCCAGCCUCCAUCACAAAUGCCCAUAAAAUCUGGCUCGUCUUUGAUGAACAAUAAAUAUUUGUUGAACAAAUAAAUAACUGCCCUGCUGGAAUUCUCGGGUGCCAA`, “RBNS enrichment (R)” read 0.417.
`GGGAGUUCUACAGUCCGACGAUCAGAGAAGGCCAAGGGCUGCGGACUUCUUUGAGAGCCAGAAGCCCUUUCUGAAGCCUGCUUUUAUACCGGAUGUUCUAUAAAUUAUAACUUUUAAAGUUGGGCUUUUUAAUUGGAAUUCUCGGGUGCCAA`: “RBNS enrichment (R)” 0.531.
`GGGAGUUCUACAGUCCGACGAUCCUGCUGUCUCUGUAUGUCCAGUCGGUGGAACACUGUAAUGACUUGAGAAUAAACUGCCCAGAGUUCAUUUUCACUCACGUCCCCUUUUAUUUGGUUCAGUGUUCAUGUGAUGGAAUUCUCGGGUGCCAA`: “RBNS enrichment (R)” 0.507.
`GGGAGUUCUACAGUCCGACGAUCCUGUCUAAACACCAACCAUCUUCUCUUGGAAUGGGCCCCAGGCAAGGCUUGCAGCAAUAUAGCCUGGACCCAGAAAAGGGAAAACGAUAAGGAAAUUCUGUCUGGUAGGUUGGAAUUCUCGGGUGCCAA` — result for “RBNS enrichment (R)”: 0.537.
`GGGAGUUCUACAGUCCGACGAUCUAGAAGUGGGUGACCCAUUGAGGACACAUGAUGUGAGGUAUUUCUGCCGGAUUCUAGGUUAGCAAAGACUCAAAUGGGUGACUCAUGAAUGAAGGGAGAACAGGCACAGGUGGAAUUCUCGGGUGCCAA` — result for “RBNS enrichment (R)”: 2.16.
